Measurements collected from several papers.
Several values in a cell are separate wells, animals, samples, runs or records. Numbers after ± are the reported error.

Structure (SMILES) | test | test system | conditions | how to read | endpoint | result
CC(C)Cc1ccc(C(C)C(=O)NC(CCCCNC(=O)CCOCCOCCOCCOCCOCCOCCNC(=O)CN2CCN(CC(=O)[O-])CCN(CC(=O)[O-])CCN(CC(=O)[O-])CC2)C(=O)Nc2cccc3c(C(=O)NCC(=O)N4CC(F)(F)C[C@H]4C#N)ccnc23)cc1.[68Ga+3] (stereo partly drawn) |  | PBS | 30 min, 37 °C, 68Ga-labelled |  | radiochemical stability | 99.9 ± 0.6%
O=C(NS(=O)(=O)c1cccs1)c1cc2ccccc2n1Cc1ccc(Br)c2ccccc12 |  | KM mouse, chronic hyperuricaemia model | dose not given, day 20 |  | body weight | 35.6 g and 34.6 g and 36.4 g and 38 g and 32.8 g and 37.6 g
CCCCN1C(=O)c2cccc3c(NCCCCCCCCN4CCOCC4)ccc(c23)C1=O |  | acetonitrile |  |  | fluorescence quantum yield | 0.95
CC1(C)C(=CC=C2CCCC(C=CC3=[N+](CCC[N+](C)(C)C)c4ccc(S(=O)(=O)O)cc4C3(C)C)=C2SCCOCCOCCC(=O)O)N(CCC[N+](C)(C)C)c2ccc(S(=O)(=O)O)cc21 |  | PBS | pH 7.4 |  | Stokes shift | 28 nm
CNc1cc(N)c(C(N)=O)c[n+]1C | substrate, measured: methylated product | rats, plasma | oral, 30 mg/kg, 0.25 h |  | plasma concentration of product | 102 nM and 108 nM
CN(Cc1cc(C2CC2)on1)C(=O)c1cccc(-c2ccc(F)cc2)c1 |  | male ICR/CD-1 mouse, liver microsomes | 2 µM, 30 min, pH 7.5, without ABT |  | remaining compound | 18.1%
CC[C@H](C)[C@H](NC(=O)[C@H](Cc1ccccc1)NC(=O)[C@H](CCC(=O)O)NC(=O)[C@H](CCCCN)NC(=O)[C@H](C)NC(=O)[C@H](C)NC(=O)[C@H](CCC(N)=O)NC(=O)CNC(=O)[C@H](CCC(=O)O)NC(=O)[C@H](CC(C)C)NC(=O)[C@H](Cc1ccc(O)cc1)NC(=O)[C@H](CO)NC(=O)[C@H](CO)NC(=O)[C@@H](NC(=O)[C@H](CC(=O)O)NC(=O)[C@H](CO)NC(=O)[C@@H](NC(=O)[C@H](Cc1ccccc1)NC(=O)[C@@H](NC(=O)CNC(=O)[C@H](CCC(=O)O)NC(=O)[C@H](C)NC(=O)[C@@H](N)Cc1c[nH]cn1)[C@@H](C)O)[C@@H](C)O)C(C)C)C(=O)N[C@@H](C)C(=O)N[C@@H](Cc1c[nH]c2ccccc12)C(=O)N[C@@H](CC(C)C)C(=O)N[C@H](C(=O)N[C@@H](CCCNC(=N)N)C(=O)NCC(=O)N[C@@H](CCCNC(=N)N)C(=O)NCC(=O)O)C(C)C |  | male ICR mice, plasma | intravenous bolus, 1 mg/kg |  | clearance | 105 mL/min/kg and 101 mL/min/kg and 254 mL/min/kg
C=CC(=O)Nc1cc(Nc2nccc(-c3c[nH]c4ccccc34)n2)c(OC)cc1N(C)CCN(C)C | storage stability | human plasma | 10 d, on ice, LQC level |  | recovery | 56.6%
COc1ccc2c(c1)CCn1c[n+]3c(c1-2)-c1ccc(OC)cc1CC3 |  | female NSG mice, blood | 6 mg/kg, day 14, 5 days per week |  | Hematocrit | 39.6 ± 3.26%
CC(=O)N[C@@H](CCCCN)C(=O)N1CCC[C@H]1C(=O)N[C@H](C(=O)N[C@@H](Cc1ccccc1)C(=O)N[C@@H](CCC(N)=O)C(=O)N[C@@H](Cc1ccccc1)C(=O)N[C@@H](CC(C)C)C(=O)N[C@@H](Cc1ccccc1)C(=O)N[C@@H](Cc1c[nH]cn1)C(=O)N[C@@H](CCC(=O)O)C(N)=O)C(C)C | AFM | hydrogel | pH 5.5 |  | nanofiber diameter | 6.1 ± 0.4 nm
Cc1cc(C(=O)NC(C)(C)CO)cc(C)n1 | LC-MS metabolite profiling | Sprague-Dawley rat, both sexes, plasma | oral, 100 mg/kg of parent drug, 0.5 (unit not given) | higher = more metabolite | plasma peak area | 224000 a.u.
CC#CC(=O)N1CCC[C@H]1c1nc(-c2ccc(C(=O)Nc3ccccn3)cc2)c2c(N)nccn12 |  | mouse, TMD8 tumour-bearing, plasma | 15 mg/kg twice daily, 12 h |  | trough concentration | 0.13 ng/mL
CCCCCCCC(=O)OC[C@H](NC(=O)[C@H](CO)NC(=O)CN)C(=O)N[C@@H](Cc1ccccc1)C(=O)N[C@@H](CC(C)C)C(=O)N[C@@H](CO)C(=O)N1CCC[C@H]1C(=O)N[C@@H](CCC(=O)O)C(=O)N[C@@H](Cc1cnc[nH]1)C(=O)N[C@@H](CCC(N)=O)C(=O)N[C@@H](CCCNC(=N)N)C(=O)N[C@H](C(=O)N[C@@H](CCC(N)=O)C(=O)N[C@@H](CCC(N)=O)C(=O)N[C@@H](CCCNC(=N)N)C(=O)N[C@@H](CCCCN)C(=O)N[C@@H](CCC(=O)O)C(=O)N[C@@H](CO)C(=O)N[C@@H](CCCCN)C(=O)N[C@@H](CCCCN)C(=O)N1CCC[C@H]1C(=O)N1CCC[C@H]1C(=O)N[C@@H](C)C(=O)N[C@@H](CCCCN)C(=O)N[C@@H](CC(C)C)C(=O)N[C@@H](CCC(N)=O)C(=O)N1CCC[C@H]1C(=O)N[C@@H](CCCNC(=N)N)C(=O)O)C(C)C | manual cuff, measured: dBP | human, chronic HFrEF patients | intravenous infusion, 0.1 µg/kg/min over 120 min, follow-up day 2-5, median |  | blood pressure | 70 mm Hg
CCCCN1C(=O)c2cccc3c(NCCCN4CCOCC4)ccc(c23)C1=O |  | water | pH 6.0 |  | Stokes shift | 102 nm
Cc1nc(N)nc2c1C(=O)N[C@@H](c1ccc(F)cc1-c1cccc(O[11CH3])n1)C2 | ex vivo biodistribution | healthy mice, blood | 60 min post-injection, baseline, vehicle pre-treatment |  | SUV | 0.5 ± 0.1
O=S(=O)(Nc1ccc(OC(F)(F)F)cc1)N1CCCC(C2c3ccc(F)cc3CCc3cc(F)ccc32)C1 (stereo not drawn) |  | mouse, brain homogenate | oral, 30 mg/kg, 2 h |  | brain concentration | 191 ng/g
COc1cccc(OC)c1-c1cc(C(=O)NC2(C(=O)O)C3CC4CC(C3)CC2C4)nn1-c1ccc(C(=O)N(C)CCCN(C)CCCN(C)C(=O)[C@H](CCCCNC(=O)[C@H](CC(C)C)NC(=O)C2OC2C(=O)O)NC(=O)CN2CCN(CC(=O)[O-])CCN(CC(=O)[O-])CCN(CC(=O)[O-])CC2)cc1C(C)C.[177Lu+3] (mixture of isomers) |  | mouse HT-29 xenograft | 24 h, biodistribution | baseline: tumour over stomach | tumour-to-stomach ratio | 26
N#C[C@@H]1CC(F)(F)CN1C(=O)CNC(=O)c1ccnc2c(NC(=O)[C@H](CCCCNC(=O)CCOCCOCCOCCOCCOCCOCCNC(=O)CN3CCN(CC(=O)[O-])CCN(CC(=O)[O-])CCN(CC(=O)[O-])CC3)NC(=O)CCCc3ccc(I)cc3)cccc12.[177Lu+3] |  | human serum | 1 h, 37 °C, 177Lu-labelled |  | radiochemical stability | 98.9 ± 0.8%

Structure (SMILES) | test | test system | conditions | how to read | endpoint | result
CNc1cc(C)c(C(N)=O)cn1 |  | Han Wistar rats, male, plasma | oral, 30 mg/kg, 3.00 h |  | plasma concentration | 69600 nM
Nc1ncnc2[nH]c(/C=C/c3ccc([N+](=O)[O-])cc3)nc12 | HPLC | solution, dark | before light exposure |  | purity | 100%
O=C1c2sc(-c3ccc(N4CCC(CO)CC4)nc3F)nc2CCN1c1cccnc1 |  | CD1 mouse, plasma | i.v., dose not given, 0.083 h |  | concentration | 875 ng/mL and 617 ng/mL and 585 ng/mL
CC[C@H](C)[C@H](NC(=O)[C@H](Cc1ccc(O)cc1)NC(=O)[C@@H](NC(=O)[C@H](CCCNC(=N)N)NC(=O)[C@@H](N)CC(=O)O)C(C)C)C(=O)N[C@@H](Cc1c[nH]cn1)C(=O)N1CCC[C@H]1C(=O)O | LC-MS/MS | Sprague-Dawley rat, both sexes, plasma | subcutaneous, 10 mg/kg/day, day 27, 1 h, 60 min |  | plasma concentration | 19 ng/mL
Cc1ccc(OCC(=O)N(Cc2cccs2)c2ccn[nH]2)cc1 |  | human plasma | 750 ng/mL, 1 h, 37 °C, unit not given | baseline: time zero | remaining compound | 76
N#Cc1cc(NC(=O)C2c3ccccc3C(=O)N(CC(F)(F)F)C2c2ccc[n+]([O-])c2)ccc1F (stereo not drawn) |  | human | 900 mg, unit not given | baseline: other 6 cohorts | apparent oral clearance increase | 1.3
COc1cccc(OC)c1-c1cc(C(=O)NC2(C(=O)O)C3CC4CC(C3)CC2C4)nn1-c1ccc(C(=O)NCCNC(=O)[C@H](CCCCNC(=O)[C@H](CC(C)C)NC(=O)C2OC2C(=O)O)NC(=O)CN2CCN(CC(=O)[O-])CCN(CC(=O)[O-])CCN(CC(=O)[O-])CC2)cc1C(C)C.[177Lu+3] (mixture of isomers) |  | mouse HT-29 xenograft | 72 h, biodistribution | baseline: tumour over stomach | tumour-to-stomach ratio | 43.6
C/C(N)=N/C(=N\S(=O)(=O)c1ccc(C(F)(F)F)cc1)N1C[C@H](c2ccccc2)C(c2ccc(Cl)cc2)=N1 |  | Beagle dog, plasma | oral, 24 mg/kg |  | Cmax | 1780 ng/mL
O=C(O)CCCOc1ccc([18F])cc1-c1cc(-c2ccccc2C(F)(F)F)n(-c2ccccc2)n1 | OLINDA/EXM from mouse data | human adults, adrenal |  |  | absorbed dose | 10.5 µGy/MBq
[11CH3]N1CCC(NC(=O)c2cc(-c3c(O)cc(O)cc3Oc3ccc([N+](=O)[O-])cc3)on2)CC1 |  | healthy female Wistar rats, kidneys | intravenous, 30 min |  | standardized uptake value | 5.8 ± 0.5 g/mL
O=C1c2sc(-c3ccc(N4CCC(F)C4)nc3F)nc2CCN1c1cccnc1 (stereo not drawn) | HPLC | rhesus monkey, plasma | intravenous, 6 min |  | parent fraction | 0.916
CCCC[C@H](NC(=O)CNC(=O)CNC(=O)[C@H](CCCCNC(=O)[C@H](CC(=O)O)NC(=O)C(C)c1ccc(CC(C)C)cc1)NC(=O)CN1CCN(CC(=O)O)CCN(CC(=O)O)CCN(CC(=O)O)CC1)C(=O)N[C@H]1CC(=O)NCCCC[C@@H](C(N)=O)NC(=O)[C@H](Cc2c[nH]c3ccccc23)NC(=O)[C@H](CCCNC(=N)N)NC(=O)[C@@H](Cc2ccccc2)NC(=O)[C@H](Cc2c[nH]cn2)NC1=O (stereo partly drawn) [lutetium-177 labelled] |  | C57 mice, tumour | intravenous, 0.037 MBq, 0.5 h | baseline: lung | tumour-to-tissue ratio | 4.11
OCC1OC(n2cnc3c(NCc4ccc(Br)s4)ncnc32)C(O)C1O (stereo not drawn) | equilibrium dialysis | rat plasma | 0.05 µg/mL, 4 h, pH 7.4 |  | fraction unbound | 0.03
CCCCN1C(=O)c2cccc3c(NCCCCCN4CCOCC4)ccc(c23)C1=O |  | methanol |  |  | fluorescence quantum yield | 1.16
CCc1cnc(NC(=O)c2cc(S(=O)(=O)N3CCOCC3)ccc2N(C)C2CCCC2)s1 |  | mouse | 10 mg/kg, 3 doses |  | serum ALT | 31.7 IU/L
N#C[C@@H]1CC(F)(F)CN1C(=O)CNC(=O)c1ccnc2c(NC(=O)[C@@H](N)CCCCNC(=O)CCOCCOCCOCCOCCOCCOCCNC(=O)CN3CCN(CC(=O)[O-])CCN(CC(=O)[O-])CCN(CC(=O)[O-])CC3)cccc12.[177Lu+3] |  | PBS | 4 h, 37 °C, 177Lu-labelled |  | radiochemical stability | 99.08 ± 0.8%
CC(C)[C@H](NC(=O)[C@H](Cc1c[nH]c2ccccc12)NC(=O)[C@H](CCCNC(=N)N)NC(=O)[C@H](CCCNC(=N)N)NC(=O)[C@@H](NC(=O)[C@@H](NC(=O)[C@H](CCCNC(=N)N)NC(=O)[C@@H](NC(=O)[C@@H](NC(=O)[C@H](CCCNC(=N)N)NC(=O)[C@H](CCCNC(=N)N)NC(=O)[C@@H](NC(=O)[C@H](Cc1c[nH]c2ccccc12)NC(=O)[C@H](CCCNC(=N)N)NC(=O)[C@H](CCCNC(=N)N)NC(=O)[C@@H](NC(=O)[C@H](CCCNC(=N)N)NC(=O)[C@H](CCCNC(=N)N)NC(=O)[C@@H](NC(=O)[C@H](Cc1c[nH]c2ccccc12)NC(=O)[C@H](CCCNC(=N)N)NC(=O)[C@@H](N)CCCNC(=N)N)C(C)C)C(C)C)C(C)C)C(C)C)C(C)C)C(C)C)C(C)C)C(=O)N[C@@H](CCCNC(=N)N)C(=O)N[C@@H](CCCNC(=N)N)C(=O)O |  | CD1 mouse, urine | intravenous, 15 mg/kg, 6 h, [14C]-labelled compound |  | sodium excretion | < 6.4 µmol/day/g body weight
CN(O)C(=O)CCC(=O)NCCCN(CCCCN(CCCNC(=O)CCC(=O)N(C)O)C(=O)CCC(=O)N(C)O)C(=O)CCC(=O)N(C)O.[89Zr] | radio-TLC | aqueous buffer | 7 d, pH 8.5, 37 °C, 89Zr-labelled complex, together with: DTPA 1000-fold excess |  | intact complex | 98.2 ± 1.4%

For quick reference, copied from above:
Structure (SMILES) | test | test system | conditions | how to read | endpoint | result
Cc1nc(N)nc2c1C(=O)N[C@@H](c1ccc(F)cc1-c1cccc(O[11CH3])n1)C2 | ex vivo biodistribution | healthy mice, blood | 60 min post-injection, baseline, vehicle pre-treatment |  | SUV | 0.5 ± 0.1
O=S(=O)(Nc1ccc(OC(F)(F)F)cc1)N1CCCC(C2c3ccc(F)cc3CCc3cc(F)ccc32)C1 (stereo not drawn) |  | mouse, brain homogenate | oral, 30 mg/kg, 2 h |  | brain concentration | 191 ng/g
